Measurements of several laboratories.
Protocols differ between the studies behind these lines. Numbers after ± are the reported error.
Matrix: plasma

Structure (SMILES)	species	route	dose	time	quantity	result
COc1ccc(CCNc2ncnc3sc(C)cc23)cc1OC	mouse	intraperitoneal	2.6 mg/kg	within 1 h	plasma level reduction	~10 fold
Cc1nc(NC(=O)N2CCC[C@H]2C(N)=O)sc1-c1csc(C(C)(C)C)n1	mouse SK-OV-3 xenograft	intraperitoneal	100 mg/kg single	6 h	plasma concentration	9.1 ± 1.1 µM
CCC1C=CC2CCN(C(=O)C3CCC4C=CC5(CCCN5C(=O)C(Cc5ccccc5Cl)NC(C)=O)C(=O)N43)C2C(=O)N1CC(=O)OC (stereo not drawn)	mouse	subcutaneous	100 mg/kg	24 h	plasma concentration	< 0.001 µM
CCCCCCCCCCCCCCCC(=O)N[C@@H](CCC(=O)NCCCC[C@H](NC(=O)[C@H](CC(=O)O)NC(=O)[C@H](CO)NC(=O)[C@@H](NC(=O)[C@H](Cc1ccccc1)NC(=O)[C@@H](NC(=O)CNC(=O)[C@H](CCC(N)=O)NC(=O)[C@H](CO)NC(=O)[C@@H](N)Cc1c[nH]cn1)[C@@H](C)O)[C@@H](C)O)C(=O)N[C@@H](CO)C(=O)N[C@@H](CCC(=O)O)C(=O)N[C@@H](Cc1ccc(O)cc1)C(=O)N[C@@H](CC(C)C)C(=O)N[C@@H](CC(=O)O)C(=O)N[C@@H](CO)C(=O)N[C@@H](CCC(=O)O)C(=O)N[C@@H](CCCNC(=N)N)C(=O)N[C@@H](C)C(=O)N[C@@H](CCCNC(=N)N)C(=O)N[C@@H](CC(=O)O)C(=O)N[C@@H](Cc1ccccc1)C(=O)N[C@H](C(=O)N[C@@H](C)C(=O)N[C@@H](Cc1c[nH]c2ccccc12)C(=O)N[C@@H](CC(C)C)C(=O)N[C@@H](CCC(=O)O)C(=O)N[C@@H](C)C(=O)NCC(=O)NCC(=O)O)C(C)C)C(=O)O	diet-induced obese mouse	subcutaneous	dose not given		plasma exposure over EC50	> 10 fold
CC(C)(C)NCC(SS(=O)(=O)O)c1ccccc1 (stereo not drawn)	Swiss Webster mouse, female	oral	100 mg/kg	0.5 to 4.0 h	plasma peak decrease	> 50%
CSCC[C@H](NC(=O)[C@H](CO)NC(=O)[C@@H](N)CO)C(=O)N[C@@H](CCCCN)C(=O)N[C@@H](CC(C)C)C(=O)N[C@@H](CO)C(=O)N[C@@H](Cc1ccccc1)C(=O)N[C@@H](CCCNC(=N)N)C(=O)N[C@@H](C)C(=O)N[C@@H](CCCNC(=N)N)C(=O)N[C@@H](C)C(=O)N[C@@H](Cc1ccc(O)cc1)C(=O)NCC(=O)N[C@@H](Cc1ccccc1)C(=O)N[C@@H](CCCNC(=N)N)C(=O)NCC(=O)N1CCC[C@H]1C(=O)NCC(=O)N1CCC[C@H]1C(=O)N[C@@H](CCC(N)=O)C(=O)N[C@@H](CC(C)C)C(=O)O	C57BL/6 mouse, fed				plasma half-life	~402 min
Cn1cnnc1Sc1c2c(c(C#N)c3nc4ccccc4n13)CCCC2	C57BL/6 mouse	intravenous	0.3 µg/g	60 min	plasma concentration	0.1 ng/mL
CCC1CC2C(C)=CC3C(=O)CCCC3C=CC(C)=CC2C(=O)O1 (stereo not drawn)	ICR mouse male	intravenous	2 mg/kg	5 min	plasma concentration	25.5 ± 9.9 ng/mL
Cn1ncc2c1N(CCCCNC/C=C/C#N)c1cc(Cl)ccc1CC2.O=C(O)/C=C\C(=O)O	mouse	intravenous	5 mg/kg		plasma clearance	> 90 mL/min/kg

Some of these lines once more:
Structure (SMILES)	species	route	dose	time	quantity	result
CSCC[C@H](NC(=O)[C@H](CO)NC(=O)[C@@H](N)CO)C(=O)N[C@@H](CCCCN)C(=O)N[C@@H](CC(C)C)C(=O)N[C@@H](CO)C(=O)N[C@@H](Cc1ccccc1)C(=O)N[C@@H](CCCNC(=N)N)C(=O)N[C@@H](C)C(=O)N[C@@H](CCCNC(=N)N)C(=O)N[C@@H](C)C(=O)N[C@@H](Cc1ccc(O)cc1)C(=O)NCC(=O)N[C@@H](Cc1ccccc1)C(=O)N[C@@H](CCCNC(=N)N)C(=O)NCC(=O)N1CCC[C@H]1C(=O)NCC(=O)N1CCC[C@H]1C(=O)N[C@@H](CCC(N)=O)C(=O)N[C@@H](CC(C)C)C(=O)O	C57BL/6 mouse, fed				plasma half-life	~402 min
